Measured values gathered from unrelated publications.
Numbered parts are unrelated; each lists some results of a single study. “And” joins repeats or separate records; there may be more than shown.
Chain of UniProt Q9P289 (whole entry, looked up): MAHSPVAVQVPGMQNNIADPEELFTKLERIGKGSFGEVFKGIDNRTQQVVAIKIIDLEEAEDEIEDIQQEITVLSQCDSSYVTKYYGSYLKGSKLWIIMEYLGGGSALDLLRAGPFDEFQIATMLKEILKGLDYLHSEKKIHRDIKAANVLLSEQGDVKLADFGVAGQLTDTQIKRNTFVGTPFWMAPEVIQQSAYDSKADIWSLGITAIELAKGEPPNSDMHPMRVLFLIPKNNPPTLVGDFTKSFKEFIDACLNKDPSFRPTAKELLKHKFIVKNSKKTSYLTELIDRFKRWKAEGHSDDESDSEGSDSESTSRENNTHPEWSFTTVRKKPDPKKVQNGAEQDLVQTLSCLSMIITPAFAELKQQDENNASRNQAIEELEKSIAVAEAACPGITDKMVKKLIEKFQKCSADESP
Chain of UniProt Q9Y2H9 (whole entry, looked up): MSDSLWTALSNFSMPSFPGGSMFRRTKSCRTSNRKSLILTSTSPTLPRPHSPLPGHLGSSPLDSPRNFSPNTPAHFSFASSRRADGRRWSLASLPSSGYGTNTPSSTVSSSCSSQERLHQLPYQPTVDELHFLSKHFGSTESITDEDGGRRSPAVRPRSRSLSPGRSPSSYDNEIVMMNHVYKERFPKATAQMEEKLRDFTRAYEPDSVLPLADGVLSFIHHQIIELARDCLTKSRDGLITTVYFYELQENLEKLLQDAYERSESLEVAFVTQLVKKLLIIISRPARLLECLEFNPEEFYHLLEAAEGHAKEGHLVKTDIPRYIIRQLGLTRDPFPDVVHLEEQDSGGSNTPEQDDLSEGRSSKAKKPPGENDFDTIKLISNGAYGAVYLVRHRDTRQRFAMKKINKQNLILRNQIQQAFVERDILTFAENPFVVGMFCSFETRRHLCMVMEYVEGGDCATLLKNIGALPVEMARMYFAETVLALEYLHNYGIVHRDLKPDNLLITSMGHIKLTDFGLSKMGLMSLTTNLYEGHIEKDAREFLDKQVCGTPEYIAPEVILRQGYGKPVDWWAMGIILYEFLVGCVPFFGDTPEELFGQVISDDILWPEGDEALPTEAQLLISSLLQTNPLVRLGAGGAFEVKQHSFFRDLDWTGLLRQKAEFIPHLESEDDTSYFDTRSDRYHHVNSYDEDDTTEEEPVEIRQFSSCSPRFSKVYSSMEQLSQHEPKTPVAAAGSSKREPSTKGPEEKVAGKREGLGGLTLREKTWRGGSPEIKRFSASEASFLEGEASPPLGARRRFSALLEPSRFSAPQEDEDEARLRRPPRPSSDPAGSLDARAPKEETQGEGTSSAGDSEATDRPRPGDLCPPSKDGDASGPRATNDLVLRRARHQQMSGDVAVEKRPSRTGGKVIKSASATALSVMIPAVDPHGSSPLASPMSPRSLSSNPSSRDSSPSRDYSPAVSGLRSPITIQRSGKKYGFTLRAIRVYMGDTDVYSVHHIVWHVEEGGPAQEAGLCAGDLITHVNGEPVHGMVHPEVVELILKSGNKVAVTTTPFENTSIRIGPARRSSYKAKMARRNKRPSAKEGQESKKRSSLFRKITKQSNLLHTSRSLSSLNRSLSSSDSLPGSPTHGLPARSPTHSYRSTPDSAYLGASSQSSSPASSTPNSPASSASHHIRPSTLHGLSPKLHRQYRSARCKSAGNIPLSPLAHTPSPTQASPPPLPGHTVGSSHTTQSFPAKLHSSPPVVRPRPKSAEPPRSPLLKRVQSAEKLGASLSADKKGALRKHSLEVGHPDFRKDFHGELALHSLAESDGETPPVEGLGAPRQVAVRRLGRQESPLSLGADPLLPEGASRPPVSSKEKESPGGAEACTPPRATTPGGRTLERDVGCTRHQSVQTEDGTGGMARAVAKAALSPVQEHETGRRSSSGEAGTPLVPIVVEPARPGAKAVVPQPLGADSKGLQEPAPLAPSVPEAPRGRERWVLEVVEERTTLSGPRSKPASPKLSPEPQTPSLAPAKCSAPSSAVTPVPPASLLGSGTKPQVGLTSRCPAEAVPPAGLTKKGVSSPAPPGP

Study 1
Host: mouse
Matrix: microsomes or S9
Tested at: 2 µM
Time: 0.5 h
| SMILES | remaining compound |
| --- | --- |
| COc1cc(=O)[nH]cc1C(=O)NC1CCN(c2c(F)cccc2F)C1 (centres unmarked) | 73.5% |
| CC1(C)Oc2c(ccnc2Cl)[C@H](N(Cc2ncc[nH]2)c2ccc(Cl)cc2Cl)[C@H]1O | 1.81% |
| COc1ccc(C)cc1N(CC(=O)Nc1ccc(S(=O)(=O)N2CCCC2)cc1)S(C)(=O)=O | 0.0602% |
| Cc1ccccc1S(=O)(=O)N(CCn1nnc(C(=O)O)c1C(=O)O)C1CCCCC1 | 93% |
| C1=NN(c2ccccc2)C2c3ccccc3OCC12 (centres unmarked) | 2.26% |
| Cc1nn(-c2n[nH]c(C)c2Br)c(C)c1C | 14.2% |
| Cc1nc(C)c(S(=O)(=O)N2C[C@H]3CCc4nnc(-c5ccncc5)n4[C@H]3C2)s1 | 77.4% |

Study 2
Target: Beta-1 adrenergic receptor (ADRB1, Homo sapiens, UniProt P08588)
Chain of UniProt P08588 (whole entry, looked up): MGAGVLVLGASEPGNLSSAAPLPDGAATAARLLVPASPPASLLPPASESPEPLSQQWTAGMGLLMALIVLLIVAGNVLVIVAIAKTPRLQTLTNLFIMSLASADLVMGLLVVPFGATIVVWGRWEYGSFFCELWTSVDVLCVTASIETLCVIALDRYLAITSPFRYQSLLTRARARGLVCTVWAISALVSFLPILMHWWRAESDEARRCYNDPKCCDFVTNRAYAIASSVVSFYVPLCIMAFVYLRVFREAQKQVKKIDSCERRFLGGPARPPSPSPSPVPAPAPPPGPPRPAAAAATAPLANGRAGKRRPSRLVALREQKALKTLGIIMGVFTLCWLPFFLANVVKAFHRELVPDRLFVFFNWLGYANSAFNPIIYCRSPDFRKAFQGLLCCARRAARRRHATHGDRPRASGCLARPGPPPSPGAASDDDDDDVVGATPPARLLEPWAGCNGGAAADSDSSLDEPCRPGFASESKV
Action: antagonist
| SMILES | IC50 [µM] |
| --- | --- |
| COc1ccccc1N1CCN(CCC(=O)Nc2ccc3c(c2)OCCO3)CC1 | ≥ 100 |
| O=c1cc(-c2cnccn2)oc2c(-c3cn[nH]c3)nccc12 | 50.1 |
| CC(O)CN1CCN(c2cnc3ccccc3n2)CC1C (centres unmarked) | ≥ 100 |
| OC(c1ccc2c(c1)CCO2)c1nc(Nc2cccc(C(F)(F)F)c2)n[nH]1 (centres unmarked) | ≥ 100 |
| OC1(c2nc(Nc3cccc(N4CCOCC4)c3)n[nH]2)CCOCC1 | ≥ 100 |
| Cc1noc2c(N(C)C)cc(-c3ccc(Cl)cc3)nc12 | ≥ 100 |
| CCOCCN1C(=O)COC[C@@H]1[C@H](O)c1ccc(NC(=O)Cc2ccccc2)cc1 | ≥ 100 |

Study 3
Target: DNA polymerase theta, ATPase domain (POLQ, Homo sapiens, UniProt O75417)
Chain of UniProt O75417 (whole entry, unmodified, looked up): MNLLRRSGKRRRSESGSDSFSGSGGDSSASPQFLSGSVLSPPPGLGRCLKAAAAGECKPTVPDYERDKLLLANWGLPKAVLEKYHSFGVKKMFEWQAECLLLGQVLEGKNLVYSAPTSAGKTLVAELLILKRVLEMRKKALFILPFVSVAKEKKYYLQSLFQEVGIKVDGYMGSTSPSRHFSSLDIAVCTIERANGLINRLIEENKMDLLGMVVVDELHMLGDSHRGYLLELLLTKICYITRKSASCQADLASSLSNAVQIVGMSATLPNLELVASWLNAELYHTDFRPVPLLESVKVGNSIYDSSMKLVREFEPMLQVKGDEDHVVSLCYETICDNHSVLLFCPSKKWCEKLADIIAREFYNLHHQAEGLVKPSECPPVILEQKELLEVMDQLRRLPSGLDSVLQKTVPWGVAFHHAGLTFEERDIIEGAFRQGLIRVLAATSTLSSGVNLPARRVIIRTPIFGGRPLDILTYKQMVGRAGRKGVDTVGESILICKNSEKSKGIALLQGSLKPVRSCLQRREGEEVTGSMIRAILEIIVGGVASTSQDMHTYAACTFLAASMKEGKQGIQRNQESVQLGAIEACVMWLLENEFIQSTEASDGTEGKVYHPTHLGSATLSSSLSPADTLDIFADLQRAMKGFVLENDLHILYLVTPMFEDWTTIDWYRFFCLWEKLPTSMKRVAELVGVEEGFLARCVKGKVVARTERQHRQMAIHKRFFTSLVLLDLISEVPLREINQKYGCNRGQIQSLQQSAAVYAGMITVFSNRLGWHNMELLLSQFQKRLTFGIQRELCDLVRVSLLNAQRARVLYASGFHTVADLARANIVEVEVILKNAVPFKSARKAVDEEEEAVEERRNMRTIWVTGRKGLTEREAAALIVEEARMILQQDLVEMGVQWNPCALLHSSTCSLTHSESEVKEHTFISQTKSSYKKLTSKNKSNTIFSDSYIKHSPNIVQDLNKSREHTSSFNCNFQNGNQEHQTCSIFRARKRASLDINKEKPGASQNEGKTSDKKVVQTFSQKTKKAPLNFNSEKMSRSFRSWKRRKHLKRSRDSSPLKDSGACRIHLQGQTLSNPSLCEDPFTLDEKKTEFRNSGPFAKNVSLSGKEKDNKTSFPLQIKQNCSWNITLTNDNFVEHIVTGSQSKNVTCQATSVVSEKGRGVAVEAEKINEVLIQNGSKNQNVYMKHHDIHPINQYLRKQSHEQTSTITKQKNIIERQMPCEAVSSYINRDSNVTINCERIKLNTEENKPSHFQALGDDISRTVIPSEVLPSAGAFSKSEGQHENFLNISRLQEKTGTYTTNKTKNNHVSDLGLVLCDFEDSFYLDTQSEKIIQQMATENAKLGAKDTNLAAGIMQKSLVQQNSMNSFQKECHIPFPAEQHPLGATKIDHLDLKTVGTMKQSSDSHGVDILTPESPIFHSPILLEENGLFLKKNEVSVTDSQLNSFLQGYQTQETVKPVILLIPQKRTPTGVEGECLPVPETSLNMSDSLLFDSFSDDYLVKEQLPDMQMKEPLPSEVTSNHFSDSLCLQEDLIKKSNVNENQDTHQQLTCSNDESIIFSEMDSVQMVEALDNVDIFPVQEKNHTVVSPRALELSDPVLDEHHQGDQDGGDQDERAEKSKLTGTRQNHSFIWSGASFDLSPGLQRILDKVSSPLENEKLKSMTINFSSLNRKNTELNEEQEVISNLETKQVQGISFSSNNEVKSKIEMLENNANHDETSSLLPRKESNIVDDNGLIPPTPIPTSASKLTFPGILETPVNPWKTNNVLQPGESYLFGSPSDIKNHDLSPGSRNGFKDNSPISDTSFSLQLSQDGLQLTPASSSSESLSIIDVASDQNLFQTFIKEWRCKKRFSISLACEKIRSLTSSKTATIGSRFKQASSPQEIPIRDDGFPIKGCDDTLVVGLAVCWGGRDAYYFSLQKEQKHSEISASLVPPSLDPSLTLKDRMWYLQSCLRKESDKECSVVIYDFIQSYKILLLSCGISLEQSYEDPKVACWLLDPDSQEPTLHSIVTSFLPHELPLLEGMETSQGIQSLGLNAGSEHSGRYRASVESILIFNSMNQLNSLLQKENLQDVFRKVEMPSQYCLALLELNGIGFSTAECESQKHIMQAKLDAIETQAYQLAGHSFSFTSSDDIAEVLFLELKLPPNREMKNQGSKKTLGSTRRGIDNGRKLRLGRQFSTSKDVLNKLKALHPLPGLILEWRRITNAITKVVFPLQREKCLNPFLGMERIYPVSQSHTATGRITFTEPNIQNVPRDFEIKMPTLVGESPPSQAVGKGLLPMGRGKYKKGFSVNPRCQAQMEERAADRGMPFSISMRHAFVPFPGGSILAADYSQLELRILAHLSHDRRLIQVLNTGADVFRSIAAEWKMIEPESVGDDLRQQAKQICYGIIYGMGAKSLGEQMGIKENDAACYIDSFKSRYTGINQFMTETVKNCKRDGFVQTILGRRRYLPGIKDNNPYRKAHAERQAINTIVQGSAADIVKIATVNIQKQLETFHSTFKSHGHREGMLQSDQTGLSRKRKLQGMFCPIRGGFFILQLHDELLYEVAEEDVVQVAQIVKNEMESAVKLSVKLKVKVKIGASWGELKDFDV
Read-out: enzyme activity
Action: inhibitor
Tested at: 77 µM
Baseline: untreated
| SMILES | remaining activity |
| --- | --- |
| C[C@H](Oc1cc(-c2cnn(C3CCNCC3)c2)cnc1N)c1c(Cl)ccc(F)c1Cl | 117% |
| Cc1c(Cn2c(C)nc3c(C(=O)O)cc(N4CCOCC4)cc32)cccc1C(F)(F)F | 103% |
| Cc1cc(=O)n(-c2ccccc2)n1C | 99.9% and 98.2% |
| Cn1cc(C(=O)OCC2CCN(CCNS(C)(=O)=O)CC2)c2ccccc21 | 100% |
| COc1ccc(C(=O)Nc2sc3c(c2C(N)=O)CCCC3)cc1OC | 113% |
| O=C(/C=C/C=C/c1ccc2c(c1)OCO2)N1CCCCC1 | 90.8% and 93.1% |

Study 4
Compound: Cc1cc(NC(=O)c2cccc(S(F)(F)(F)(F)F)c2)cc(-n2ccn3nc(-c4cccnc4)cc23)c1
Read-out: cell-free assay
Method: competition with immobilised ligand
Tested at: 1 µM
| target | remaining binding [%] |
| --- | --- |
| Ribosomal protein S6 kinase alpha-1, C-terminal kinase domain (RPS6KA1, Homo sapiens, UniProt Q15418) | 100 |
| Mitogen-activated protein kinase kinase kinase 10 (MAP3K10, Homo sapiens, UniProt Q02779) | 100 |
| Serine/threonine-protein kinase PAK 4 (PAK4, Homo sapiens, UniProt O96013) | 91.8 |
| Tyrosine-protein kinase CSK (CSK, Homo sapiens, UniProt P41240) | 100 |
| Tyrosine-protein kinase ITK/TSK (ITK, Homo sapiens, UniProt Q08881) | 100 |
| Serine/threonine-protein kinase 26 (STK26, Homo sapiens, UniProt Q9P289) | 100 |
| Ribosomal protein S6 kinase alpha-5, N-terminal kinase domain (RPS6KA5, Homo sapiens, UniProt O75582) | 100 |
| Myosin-IIIb (MYO3B, Homo sapiens, UniProt Q8WXR4) | 73.8 |
| Calcium/calmodulin-dependent protein kinase kinase 1 (CAMKK1, Homo sapiens, UniProt Q8N5S9) | 100 |
| Phosphatidylinositol 4,5-bisphosphate 3-kinase catalytic subunit gamma isoform (PIK3CG, Homo sapiens, UniProt P48736) | 100 |
| Serine/threonine-protein kinase 25 (STK25, Homo sapiens, UniProt O00506) | 59.5 |
| Activin receptor type-1 (ACVR1, Homo sapiens, UniProt Q04771) | 100 |
| Serine/threonine-protein kinase PAK 3 (PAK3, Homo sapiens, UniProt O75914) | 100 |
| NUAK family SNF1-like kinase 2 (NUAK2, Homo sapiens, UniProt Q9H093) | 100 |
| Hormonally up-regulated neu tumor-associated kinase (HUNK, Homo sapiens, UniProt P57058) | 77.6 |
| Phosphorylase b kinase gamma catalytic chain, skeletal muscle/heart isoform (PHKG1, Homo sapiens, UniProt Q16816) | 100 |
| Tyrosine-protein kinase ABL1, non-phosphorylated (ABL1, Homo sapiens, UniProt P00519, Q252H) | 49.2 |
| Microtubule-associated serine/threonine-protein kinase 1 (MAST1, Homo sapiens, UniProt Q9Y2H9) | 100 |
